Measured values of several laboratories.
Compare with care: the assays were run in different laboratories. ± marks the error that the study gave.
Target: Alpha-glucosidase MAL12 (MAL12, Saccharomyces cerevisiae S288c, UniProt P53341)
Chain of UniProt P53341 (whole entry, looked up): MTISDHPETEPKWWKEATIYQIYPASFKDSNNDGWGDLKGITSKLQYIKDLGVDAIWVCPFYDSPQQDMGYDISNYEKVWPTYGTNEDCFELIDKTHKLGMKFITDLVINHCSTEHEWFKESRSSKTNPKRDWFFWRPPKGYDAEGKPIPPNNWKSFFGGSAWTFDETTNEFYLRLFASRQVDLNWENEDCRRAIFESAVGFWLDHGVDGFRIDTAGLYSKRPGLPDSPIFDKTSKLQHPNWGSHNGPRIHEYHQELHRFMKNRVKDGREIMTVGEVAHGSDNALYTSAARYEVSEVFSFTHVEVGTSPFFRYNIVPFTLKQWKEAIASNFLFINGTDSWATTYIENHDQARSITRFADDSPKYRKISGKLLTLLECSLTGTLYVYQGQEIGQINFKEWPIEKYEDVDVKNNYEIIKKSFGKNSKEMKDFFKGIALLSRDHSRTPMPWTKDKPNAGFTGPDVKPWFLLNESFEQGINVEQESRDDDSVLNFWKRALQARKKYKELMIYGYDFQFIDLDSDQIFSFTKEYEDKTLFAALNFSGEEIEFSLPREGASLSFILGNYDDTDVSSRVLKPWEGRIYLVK

`COc1ccc(-c2coc3c(Cn4nc(C)cc4C)c(O)ccc3c2=O)cc1OC` gave an inhibition of less than 0% (inhibitor; 25 µM).
With `O=c1c(/C=N/NC(=S)Nc2c(F)cccc2F)coc2cc(F)ccc12` the inhibition was 91.4% (enzyme activity, inhibitor; 500 µM).
The inhibition of `Cc1ccc(-c2cc(-c3ccc4oc(=O)cc(C)c4c3O)nc(N)n2)cc1` is reported as 87.5 ± 1.24% (enzyme activity, inhibitor; concentration not given).
For `CCCCCCCCCCCCCCCC1NCCc2cc(O)c(O)cc21` (centres unmarked), the inhibition was 71.5 ± 1.08% (enzyme activity, inhibitor; 100 µM, DMSO solvent, with: pNPG substrate).
`O=c1c(/C=N/NC(=S)Nc2ccc(F)cc2)coc2cc(F)ccc12` has an inhibition of 91.7% (enzyme activity, inhibitor; 500 µM).
The inhibition of `CC(C)=CC1NCCc2cc(O)c(O)cc21` (centres unmarked) is reported as 31 ± 2.47% (enzyme activity, inhibitor; 100 µM, DMSO solvent, with: pNPG substrate).
The inhibition of `Cc1cccc(C)c1NC(=S)N/N=C/c1coc2cc(F)ccc2c1=O` is reported as 89.6% (enzyme activity, inhibitor; 500 µM).
The inhibition of `CCOC(=O)NCc1ccc(O)cc1` is reported as 28.2 ± 0.83% (inhibitor; 100 µg/mL, 0.4167 h, with: p-nitrophenyl glucoside substrate).
For `Oc1ccc(C2NCCc3cc(O)c(O)cc32)cc1O` (centres unmarked), the inhibition was 62.7 ± 3.2% (enzyme activity, inhibitor; 100 µM, DMSO solvent, with: pNPG substrate).
The inhibition of `CCCCCCCCCCCCCCNC(=O)/C=C/c1ccc(O)c(O)c1` is reported as 92.5 ± 6.85% (enzyme activity; 20 µM, with: α-amylase present).
For `O=c1c(-c2ccc3c(c2)OCO3)coc2c(Cn3ccnc3)c(O)ccc12`, the inhibition was less than 0% (inhibitor; 25 µM).
`CCCCCC1NCCc2cc(O)c(O)cc21` (centres unmarked) has an inhibition of 49.8 ± 0.64% (enzyme activity, inhibitor; 100 µM, with: pNPG substrate).
`Cc1cc(C)n(Cc2c(O)ccc3c(=O)c(C)c(C)oc23)n1` gave an inhibition of 14.2% (inhibitor; 25 µM).
The inhibition of `OCc1ccc(O)cc1` is reported as 45 ± 1.75% (inhibitor; 100 µg/mL, 0.4167 h, with: p-nitrophenyl glucoside substrate).
The inhibition of `Cc1oc2c(Cn3ccnc3)c(O)ccc2c(=O)c1C` is reported as 26.7% (inhibitor; 25 µM).
`O=c1c(/C=N/NC(=S)NC2CCCCC2)coc2cc(F)ccc12` gave an inhibition of 79.4% (enzyme activity, inhibitor; 500 µM).
`COc1ccc(-c2coc3c(Cn4ccnc4)c(O)ccc3c2=O)cc1OC` gave an inhibition of 1.08% (inhibitor; 25 µM).
The inhibition of `COc1ccc(-c2cc(-c3ccc4oc(=O)cc(C)c4c3O)nc(N)n2)cc1` is reported as 75.8 ± 1.24% (enzyme activity, inhibitor; concentration not given).
`Cc1ccc(NC(=S)N/N=C/c2coc3cc(F)ccc3c2=O)cc1` has an inhibition of 89% (enzyme activity, inhibitor; 500 µM).
For `Cc1cc(=O)oc2c(Cn3ccnc3)c(O)ccc12`, the inhibition was 53.6% (inhibitor; 25 µM).

For quick reference, copied from above:
`O=c1c(/C=N/NC(=S)NC2CCCCC2)coc2cc(F)ccc12` gave an inhibition of 79.4% (enzyme activity, inhibitor; 500 µM).
`COc1ccc(-c2coc3c(Cn4ccnc4)c(O)ccc3c2=O)cc1OC` gave an inhibition of 1.08% (inhibitor; 25 µM).
